Experimental data from different studies.
Every numbered part comes from another study and shows a few of its results, in no order.
UniProt Q9C0B0, sequence (30-357, looked up): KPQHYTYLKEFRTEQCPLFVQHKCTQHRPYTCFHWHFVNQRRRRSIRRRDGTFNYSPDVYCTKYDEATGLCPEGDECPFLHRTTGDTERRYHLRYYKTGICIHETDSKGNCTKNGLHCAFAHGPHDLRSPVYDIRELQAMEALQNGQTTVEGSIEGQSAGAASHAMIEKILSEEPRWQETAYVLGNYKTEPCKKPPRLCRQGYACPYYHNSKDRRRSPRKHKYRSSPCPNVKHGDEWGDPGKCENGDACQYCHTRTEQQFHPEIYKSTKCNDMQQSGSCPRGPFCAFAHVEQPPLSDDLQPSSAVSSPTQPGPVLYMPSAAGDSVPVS

Block 1
Target: Histone acetyltransferase KAT6A, winged helix 2, GST fusion (KAT6A, Homo sapiens, UniProt Q92794, residues 85-181)
Method: protein binding microarray
Molecule type: double-stranded DNA, one strand shown
Medium: in vitro
Tested at: not given
Notes: 8-mer, flanks averaged, mean of 2 arrays, mostly near background
Reference: not given
Reading: higher = stronger binding
Construct (chain): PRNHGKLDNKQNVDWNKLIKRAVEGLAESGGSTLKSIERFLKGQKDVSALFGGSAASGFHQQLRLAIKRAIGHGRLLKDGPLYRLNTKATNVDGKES
| Strand | E-score |
| --- | --- |
| AGTCTAGC | -0.208 |
| ATTCATAC | 0.0623 |
| ATCCCCTG | -0.0419 |
| CGCTGTCC | 0.159 |
| CCTGATCA | 0.0121 |
| GAGTGTCC | 0.0575 |
| CGCGTCTC | 0.0424 |
| TCAAGTAA | -0.122 |
| GACAGGCC | 0.0125 |
| CAAGATTA | 0.033 |
| ATGCCGCG | 0.246 |
| ACGATTTA | -0.0925 |
| AGCCACGA | 0.0198 |
| CGCTTTGA | -0.0741 |
| AAACTCAT | 0.147 |
| AAATGGTC | 0.0645 |
| GAGGAGAC | -0.142 |
| CCGAGGCC | -0.13 |
| CTGAGGAA | 0.0268 |
| CATCAAAG | 0.0498 |
| CTCTCAGC | -0.22 |
| AGATTTCA | -0.0578 |
| CGACAAGC | -0.0198 |
| AAAACATG | -0.15 |
| CCAATGCC | -0.18 |

Block 2
Target: PABPC1L2, full length, GST fusion (mouse, UniProt A0ABA7IW68)
Method: RNAcompete
Molecule type: RNA
Medium: in vitro
Tested at: 20 nM
Notes: 7-mer, probes averaged, single round
Reference: mean of 7-mers
Reading: higher = stronger binding
Residues (chain): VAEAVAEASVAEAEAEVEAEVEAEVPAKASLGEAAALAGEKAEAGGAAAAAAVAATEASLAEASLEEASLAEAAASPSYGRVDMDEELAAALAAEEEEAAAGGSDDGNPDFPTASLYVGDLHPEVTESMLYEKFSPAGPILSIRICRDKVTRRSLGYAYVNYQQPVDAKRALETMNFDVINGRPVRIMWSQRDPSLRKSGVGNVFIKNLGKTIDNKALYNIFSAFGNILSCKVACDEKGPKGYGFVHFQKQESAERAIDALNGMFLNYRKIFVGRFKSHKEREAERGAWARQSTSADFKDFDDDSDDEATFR
| Strand | 7-mer Z-score |
| --- | --- |
| GGACAGA | 0.28 |
| GCUUUGC | -0.387 |
| UUCGUGA | -0.237 |
| AACCAGA | 0.24 |
| GGGCUAC | 0.149 |
| UUCUCCG | -0.34 |
| UAUCGUU | -0.378 |
| AAGAUGG | 0.447 |
| AUAUUAU | -0.197 |
| GCGUGGC | 0.00798 |
| UUACCGU | -0.17 |
| AAAAUCU | 3.47 |
| UAGAAGC | -0.0246 |
| GUAACGG | -0.0989 |
| AGGUCGG | 0.111 |
| UAAGCUG | -0.155 |
| ACAGGUC | -0.0736 |
| CCUUGGA | -0.121 |
| UAUGCAG | 0.0116 |
| CCGUUCG | -0.508 |
| UAGGGAU | 0.22 |
| AUGGAGU | -0.119 |
| AUUAAUU | -0.135 |
| GGUUAUA | -0.0337 |
| AUCAAGG | 0.167 |

Block 3
Target: Sal-like protein 4, full length isoform B (SALL4, Homo sapiens, UniProt Q9UJQ4-2, residues 1-616)
Method: universal PBM
Molecule type: double-stranded DNA, one strand shown
Medium: in vitro
Tested at: not given
Notes: 8-mer, flanks averaged, mean of replicates
Reading: higher = stronger binding
| Strand | E-score |
| --- | --- |
| ACTGATGG | -0.146 |
| CCTGCGTA | -0.0423 |
| GGCTCGCA | -0.141 |
| CGCAACCC | -0.208 |
| ACGCGTGA | 0.00171 |
| ATATAAGG | 0.232 |
| ACGAAGCC | -0.184 |
| CCCGTGCC | -0.331 |
| ACCGTGGA | -0.226 |
| CACACCCG | -0.166 |
| CAGACGCG | -0.343 |
| CAGGTTCC | -0.31 |
| TAGGCAAA | 0.112 |
| AGCAGCCC | -0.291 |
| AACGCGAT | -0.132 |
| CGTAATAG | 0.183 |
| AATTGGGA | -0.00605 |
| AAGATGAC | 0.147 |
| GTGTACTA | 0.162 |
| CCCTCGCG | -0.261 |
| AAGTGCGA | -0.0766 |
| AGCAGTTC | -0.0517 |
| ACGCTTCT | -0.0698 |
| ACAAAGCA | 0.2 |
| TCTATTAA | 0.315 |

Block 4
Target: Centromere-binding protein 1, full length, His-tagged (CBF1, Saccharomyces cerevisiae, UniProt P17106, residues 1-351)
UniProt P17106, sequence (whole entry, looked up): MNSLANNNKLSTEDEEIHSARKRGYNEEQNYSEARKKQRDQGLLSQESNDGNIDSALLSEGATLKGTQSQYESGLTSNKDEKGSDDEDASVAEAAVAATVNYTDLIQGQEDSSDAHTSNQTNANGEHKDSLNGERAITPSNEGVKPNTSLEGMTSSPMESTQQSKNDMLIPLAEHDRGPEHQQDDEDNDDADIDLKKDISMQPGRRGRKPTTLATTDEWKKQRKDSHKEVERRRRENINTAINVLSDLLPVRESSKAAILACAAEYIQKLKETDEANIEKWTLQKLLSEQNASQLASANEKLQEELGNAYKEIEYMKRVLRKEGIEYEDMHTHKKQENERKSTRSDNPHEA
Method: competition protein-binding microarray
Molecule type: double-stranded DNA, one strand shown
Medium: in vitro
Tested at: 2 µM
Notes: whole 60-bp probe, lowest competitor level
Added: Pho4 competitor, 0.05 µM
Reading: higher = stronger binding
| Strand | fluorescence intensity |
| --- | --- |
| TATATCAGATAAGGACACGTGCCGATTCATTGGAAAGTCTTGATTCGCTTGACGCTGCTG | 2270 a.u. |
| CAGCTGGTCTCCCAGCACGTGGCCTGGAGCCCAGCCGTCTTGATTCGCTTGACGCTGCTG | 1220 a.u. |
| AACTGCAGGGTCTGGCACGGCAACACAAGGCTATTGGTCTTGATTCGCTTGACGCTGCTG | 56.6 a.u. |
| TCGGGCGCTCTAGGACGCGTGTCGGTCGGGTAACCAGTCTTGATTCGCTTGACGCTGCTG | 61.1 a.u. |
| AAGTGTATGGGTCCACGCGTGTTTTGTGCAGTGTATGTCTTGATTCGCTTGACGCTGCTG | 81.5 a.u. |
| CGTCCTAGTGATTGTCACATGACTTCCATGAGGAAGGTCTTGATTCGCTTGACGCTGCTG | 3590 a.u. |
| AGGCAAGGCGTACATGGCGTGACGGAGGGTTCAATGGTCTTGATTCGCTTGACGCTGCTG | 97.9 a.u. |
| GTTTCTCAGATTCTGCACATGGTACTTGATCTTGGTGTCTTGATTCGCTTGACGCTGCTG | 138 a.u. |
| AAATTACTAAGTTGTTTGGTGGGTGACGCCGTATGAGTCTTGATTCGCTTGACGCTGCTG | 64.8 a.u. |
| ATTCCTCGGAGGTAACATGTGCTGCAAAGGCCATGAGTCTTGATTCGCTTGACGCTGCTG | 133 a.u. |
| TCCCTGTGGATCCATCACGTGTGGATTAGGAGCAAAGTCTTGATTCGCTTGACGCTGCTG | 2310 a.u. |
| GAAAGGAAATGCTGTCATGTGAGTTAGGTGTAGAGCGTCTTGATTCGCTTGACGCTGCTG | 473 a.u. |
| CGGACGCTCAAACGATCCGTGACTCGGCGCCACAGGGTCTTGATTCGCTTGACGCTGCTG | 77 a.u. |
| CATACCCAACCTTGAGGTGTGGGTGAAGATATTTGTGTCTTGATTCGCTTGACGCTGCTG | 72 a.u. |
| CGTCCTAGTGATTGCGTGGTGGGTGCCATGAGGAAGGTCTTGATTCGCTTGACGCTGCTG | 88.3 a.u. |
| CGGTCGGATGGAAAACACGTGACAAGAAAGTCCCCGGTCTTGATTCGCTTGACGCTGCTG | 9860 a.u. |
| AAATTACTAAGTTTTCACGTGGTTTACCCCGTATGAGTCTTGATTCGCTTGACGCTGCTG | 1270 a.u. |

Block 5
Target: Interferon regulatory factor 5, full length, phosphomimetic (IRF5, Homo sapiens, UniProt Q13568-2, residues 1-514, S451D/S453D/S456D/S462D)
Method: protein-binding microarray
Molecule type: double-stranded DNA, one strand shown
Medium: in vitro
Tested at: 940 nM top
Notes: 60-bp whole probe
Added: salmon DNA 0.4 mg/ml
Reference: random background probes
Reading: higher = stronger binding
Shared flanks, not repeated: GCCTAGCAC … GTCTTGATTCGCTTGACGCTGCTG
| Strand | fitted relative affinity |
| --- | --- |
| TCATAAATATCTTTGTTACTGTGCTAG | 0.133 z-score |
| ATGCTTTACTCACTCGGAAAGTGCTAG | 0.151 z-score |
| TTAGATATCGAGTTTCGATTAGTGCTA | 6.22 z-score |
| TCACTTCTAATATTCATACTGTGCTAG | 1.2 z-score |
| TTAGGACCGGACTTTCGGTTAGTGCTA | 2.46 z-score |
| TGTAGCTGGAGAAGTAAAACGTGCTAG | -0.289 z-score |
| TCACATCTCGGAGATCTCACTGTGCTA | 0.415 z-score |
| TTAGGACTAGGGTTTCGGTTAGTGCTA | 4.23 z-score |
| GACGATATCGGGTCTGGAGACGTGCTA | -0.287 z-score |
| ATCTTTTTCCCTATTATATAGTGCTAG | 2.32 z-score |
| GATGGTATCGGTATCGGGACGTGCTAG | 9.84 z-score |
| TTAGTTTTCGGGTTTCGGTTAGTGCTA | 7.6 z-score |
| GACGGACAGCTTTTCCTGACGTGCTAG | -0.528 z-score |
| TTAGGTTTCGACACAGGGTTAGTGCTA | 9.09 z-score |
| GACGTACTGGACTATCGGGACGTGCTA | -0.475 z-score |
| TTAGATATCGGGTTTCGATGAGTGCTA | 4.27 z-score |

Further values, each from its own experiment
| Strand | target | test | test system | conditions | how to read | quantity | result |
| --- | --- | --- | --- | --- | --- | --- | --- |
| GGGAGUUCUACAGUCCGACGAUCGUUGGGCCAUGACCCCUACCGAUCCGGUCAUGAUGCUUACAGGUCCGGACAAGACCCUUACCGAUCCGGCCAUGAUCCCUACAGACUAACUCCUGAUCCCUACCGGAUGUCACCCCGACCCAACAGAGGAUUGAGCAUCA | RING finger protein unkempt homolog, zinc fingers 1-6, SBP tag (UNK, Homo sapiens, UniProt Q9C0B0, residues 30-357) | RNA Bind-n-Seq | RNA, in vitro | 100 nM, RNA with constant flanks, ends assumed | reference: input RNA pool, higher = stronger binding | bound/input enrichment | 0.451 ratio |

A few entries again (block 3):
| Strand | E-score |
| --- | --- |
| AACGCGAT | -0.132 |
| CGTAATAG | 0.183 |
| AATTGGGA | -0.00605 |
| AAGATGAC | 0.147 |
| GTGTACTA | 0.162 |
| CCCTCGCG | -0.261 |
